Experimental data of several laboratories.
Parts stem from different laboratories: compare values within a part only. Changes are numbered by the printed parent chain.

Sample 1
Target: CRIPT, C-terminal peptide
Method: DHFR complementation, deep sequencing
Medium: yeast
Setting: single substitutions, model-inferred values
Relative to: wild type
Direction: higher = weaker binding
Starting sequence: ERBIN, PDZ domain 1 (human); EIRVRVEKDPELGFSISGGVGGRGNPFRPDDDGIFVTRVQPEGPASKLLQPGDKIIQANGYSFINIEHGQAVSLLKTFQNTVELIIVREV; partner TKNYKQTSV
Variant	binding free energy change
F63W	1.18 kcal/mol
F14Q	0.565 kcal/mol
V6E	0.908 kcal/mol
S15G	1.27 kcal/mol
L12A	0.511 kcal/mol
V82C	0.298 kcal/mol
G69R	0.346 kcal/mol
R28V	-0.115 kcal/mol

Sample 2
Target: PABPC1L2, full length, GST fusion (mouse, UniProt A0ABA7IW68)
Method: RNAcompete
Molecule type: RNA
Medium: in vitro
Concentration: 20 nM
Setting: 7-mer, probes averaged, single round
Relative to: mean of 7-mers
Direction: higher = stronger binding
Oligonucleotide	7-mer Z-score
CUGCGAC	-0.161
GUUGUUU	-0.478
GACCACU	-0.266
AGCCAUU	-0.182
GGCAACC	0.149
UAGUAGC	-0.32
UCUUCUU	-0.516
ACUCGCA	-0.358

Further values, each from its own experiment
P1: viral docking peptide; TSVRRALFTGGSD; partner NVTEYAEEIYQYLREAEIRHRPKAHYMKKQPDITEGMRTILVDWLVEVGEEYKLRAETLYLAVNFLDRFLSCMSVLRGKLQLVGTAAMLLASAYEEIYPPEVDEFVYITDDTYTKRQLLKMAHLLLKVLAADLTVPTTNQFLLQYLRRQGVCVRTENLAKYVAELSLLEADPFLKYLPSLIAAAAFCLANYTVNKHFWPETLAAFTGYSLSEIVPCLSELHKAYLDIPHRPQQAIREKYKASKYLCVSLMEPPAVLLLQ
Substance	target or system	test	test system	conditions	how to read	endpoint	value
MBD3 (Homo sapiens, UniProt O95983)	GATAD2B (Homo sapiens, UniProt Q8WXI9)	cross-linking MS	–	hits only	–	interaction screen	cross-linked
P1 F8C	CCNA1, cyclin fold, Cln2 fusion (human)	yeast growth competition, sequencing	yeast	strong parent motif	relative to: not given, higher = stronger binding	normalised enrichment score	-0.0331
SF3B1 (Homo sapiens, UniProt O75533)	SF3B2 (Homo sapiens, UniProt Q13435)	cross-linking MS	–	hits only	–	interaction screen	cross-linked

A few entries again (further values, each from its own experiment):
Substance	target or system	test	test system	conditions	how to read	endpoint	value
MBD3 (Homo sapiens, UniProt O95983)	GATAD2B (Homo sapiens, UniProt Q8WXI9)	cross-linking MS	–	hits only	–	interaction screen	cross-linked
SF3B1 (Homo sapiens, UniProt O75533)	SF3B2 (Homo sapiens, UniProt Q13435)	cross-linking MS	–	hits only	–	interaction screen	cross-linked
P1 F8C	CCNA1, cyclin fold, Cln2 fusion (human)	yeast growth competition, sequencing	yeast	strong parent motif	relative to: not given, higher = stronger binding	normalised enrichment score	-0.0331
